Assay results pooled from the literature.
Parts stem from different laboratories: compare values within a part only. Positions count from the first letter of the parent shown.

Series 1
Target: Interferon regulatory factor 7, full length, phosphomimetic (IRF7, Homo sapiens, UniProt Q92985, residues 1-503, S471D/S472D/S475D/S476D/S477D/S483D/S484D/S487D)
Sequence of UniProt Q92985 (whole entry, unmodified, looked up): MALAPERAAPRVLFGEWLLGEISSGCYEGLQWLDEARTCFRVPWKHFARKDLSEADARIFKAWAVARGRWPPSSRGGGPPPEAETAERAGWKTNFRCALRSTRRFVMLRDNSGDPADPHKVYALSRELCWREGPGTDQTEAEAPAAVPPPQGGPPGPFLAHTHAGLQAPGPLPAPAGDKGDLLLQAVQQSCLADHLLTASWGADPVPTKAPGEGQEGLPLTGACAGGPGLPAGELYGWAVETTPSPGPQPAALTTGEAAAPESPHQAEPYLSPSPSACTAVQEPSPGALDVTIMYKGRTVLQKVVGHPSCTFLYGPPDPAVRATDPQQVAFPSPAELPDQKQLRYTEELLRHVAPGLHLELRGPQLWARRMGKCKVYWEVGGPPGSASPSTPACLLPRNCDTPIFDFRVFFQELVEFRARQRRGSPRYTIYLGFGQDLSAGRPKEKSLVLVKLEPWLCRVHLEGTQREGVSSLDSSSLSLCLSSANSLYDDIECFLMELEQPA
Method: protein-binding microarray
Molecule type: double-stranded DNA, one strand shown
Matrix: in vitro
Tested at: 2200 nM top
Setting: 60-bp whole probe
Added: salmon DNA 0.4 mg/ml
Reference: random background probes
Reading: higher = stronger binding
Endpoint: fitted relative affinity
Constant ends, left off below: GCCTAGCAC … GTCTTGATTCGCTTGACGCTGCTG
GACGTTATCGACACTGGGGACGTGCTA: 0.151 z-score
TTAGGACTGCTTCTCCGTTAGTGCTAG: 0.732 z-score
GACGGACTGAGACTGGGGACGTGCTAG: -0.437 z-score
GACGATCTCAGTCTCGAAACGTGCTAG: 0.505 z-score
GTGTTATTAAAACTTCATGAAGTGCTA: 0.0473 z-score
GAGGGTCTCCTTCTCCTGACGTGCTAG: 0.247 z-score
TTAGTTCTCAGTATCGATTAGTGCTAG: 0.995 z-score
GACGGACTGCTTTTCCAGACGTGCTAG: 0.397 z-score
GACAGTTTCGACTATCGGGACGTGCTA: 4.31 z-score
GCCGGACTGGACACTGGGGACGTGCTA: -1.12 z-score
TCATGTTTGGTTCTGATACTGTGCTAG: 1.84 z-score
GACGGTATCCTTAACCTGACGTGCTAG: 0.773 z-score
GACGGTTTCGGGTATCGGTACGTGCTA: 6.24 z-score
GACGGCTTCCTACTGCTGACGTGCTAG: 0.576 z-score

Series 2
Target: CCNF, cyclin fold, Cln2 fusion (human)
Method: yeast growth competition, sequencing
Matrix: yeast
Setting: strong parent motif
Reference: not given
Reading: higher = stronger binding
Endpoint: normalised enrichment score
Parent: SAMHD1 docking peptide (human); ASKSRVQLFKDDP
S4Y: 3.24
V6P: -0.194
D12L: 1.11
K10R: 0.812
D11Q: 0.571
S4C: 6.47
K3C: 1.44
K10M: 0.634
D12A: 0.891
S4T: 3.78
D11I: 0.308
S2V: 2.25
D12Y: 2.56
D11H: 0.682

Series 3
Target: RNA binding protein fox-1 homolog 2, RRM domain, GST-SBP tag (RBFOX2, Homo sapiens, UniProt O43251-10, residues 100-194)
Method: RNA Bind-n-Seq
Molecule type: RNA
Matrix: in vitro
Tested at: 365 nM
Setting: natural RNA segment, single round, ends assumed
Reference: no-protein control
Reading: higher = stronger binding
Endpoint: RBNS enrichment (R)
Constant ends, left off below: GGGAGUUCUACAGUCCGACGAUC … UGGAAUUCUCGGGUGCCAA
Construct (chain): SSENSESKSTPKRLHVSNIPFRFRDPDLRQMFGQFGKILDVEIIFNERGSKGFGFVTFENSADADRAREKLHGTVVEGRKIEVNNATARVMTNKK
AAUAUAUACAGUAAUUGUAGGGUCAUACCUCAAAUGCUGGUAUCUUACUUGGCCAUGGGGUUGCUUGUUUAAAUAUUAAACUUACCCUUGUGACCUCUGUCCACAGUCAU: 0.222
CCCUAGACUAAGUUAAAUAUUUCUGCACAGUGUUCCCAUGGCCCCUUGCAUUUCCUUCUUAACUCUCUGUUACACGUCAUUGAAACUACACUUUUUUGGUCUGUUUUUGU: 0.94
UGAAUUGACGUUAAUGUGUUUUCACUGGAUUUUAUCUCUCUCAACUUCCUGCACUUAAAAUUUGAAACAGCAAAGGUUUGAGAUGAGAUGCUUGUGGCACACAGUUGGGU: 0.374
AAACAACUCUGUAGAGCUCUCUGCACCCUGUACCCUUUUCACCUUUUGUAUUUAAUUUUAAAGUCAGUGUACUGCAAGGAGGCUGGAUGCAAGAUAGAUACUAUAUUAAA: 0.281
GUCAUUCACGUGUCCUUUCAUGUGCUUGCUUUAGGGAAACAGUCCUUCACAAGUCUGCCUUUCACCUGUGUCUGCUUCAGCAAAAUGUUCUUUCACAUUUGCCCCAGCAA: 0.213
AACAUCACCAGCCUGGGCUAAGCUCCUGGGCUGUGCCGUCCACUGGGGACUGGGGAUGGGACACCUGAGGACAUUCUGAGACUUCUUUCUUCCUUCCUUUUUUUUUUUUU: 0.722
CAAGGGUGCCACGGGCUCUGAAGCUAACGGGCAUCCCACGCGGUCAGGUGUAGUAGUGAACUUGAACAUUUGAAUGGGAAGGAAGCACUUCGCACAAUGGCAUUUGAACA: 0.417
UCCUGGGUAGGGGUGGGGGUUUGAGUUGAGGACCAAAGUGCCAUAGCGACAUCCAGAACACAAGCCCACCAGGGGUCCAGCCCAGGCUACCCACUCCCCUAGGGUCUCCC: 0.577
UACAGUCAUAAAGCCACCUAGAGCGAUUUGUUGUUGAGCAACGCCGCCCCUUCCCUCCAGGAUCAGAAGCAGCACCCACCCUUGCCAUGAUAAACAUUCCAUCCCCUGCU: 0.544
ACAACAGCUUUGAUGAGUUCCUAUUAAGGUCGUAUUGUGUAUUGUGCCAAAUUUUCCACCCAGUAUAAAUUUAGUAACCCGCUAUGAGCAUAUGUAGGAUAUUCAAUUUG: 0.398
UUCUUUCUUCCUCUGCUGAAGGAAUAAAUUGCUCCUUGACAUUGUAGAGCUUCUGGCACUUGGAGACUUGUAUGAAAGAUGGCUGUGCCUCUGCCUGUCUCCCCCACCGG: 0.631
ACUACUGUGAUAAAAAUGAACUCAAUAUGUAGUAGCUUAUACUUUUCUCCAGUAUAUUGUUGGUCACUCACAAAUGAUUCAUUUGAACACAUUUUAGGGAUAAGUAAUCA: 0.376

Single results of other studies
PhoQ, residues 284 288 289 292 302 303 TSTLRA — fold induction (PhoP, residues 12 14 15 18 19 TQCLL (Escherichia coli, UniProt P23836); Sort-seq, item: YFP reporter; E. coli; PhoQ-PhoP variant library, added: 10 µM Mg2+; reference: high Mg2+ state, higher = stronger signaling): 4.46

Excerpt of the above (series 3):
UACAGUCAUAAAGCCACCUAGAGCGAUUUGUUGUUGAGCAACGCCGCCCCUUCCCUCCAGGAUCAGAAGCAGCACCCACCCUUGCCAUGAUAAACAUUCCAUCCCCUGCU: 0.544
ACAACAGCUUUGAUGAGUUCCUAUUAAGGUCGUAUUGUGUAUUGUGCCAAAUUUUCCACCCAGUAUAAAUUUAGUAACCCGCUAUGAGCAUAUGUAGGAUAUUCAAUUUG: 0.398
UUCUUUCUUCCUCUGCUGAAGGAAUAAAUUGCUCCUUGACAUUGUAGAGCUUCUGGCACUUGGAGACUUGUAUGAAAGAUGGCUGUGCCUCUGCCUGUCUCCCCCACCGG: 0.631
